# Published values pooled from the literature.
# A part holds a random share of what one study measured.
# Sequence of UniProt P10721 (whole entry, looked up): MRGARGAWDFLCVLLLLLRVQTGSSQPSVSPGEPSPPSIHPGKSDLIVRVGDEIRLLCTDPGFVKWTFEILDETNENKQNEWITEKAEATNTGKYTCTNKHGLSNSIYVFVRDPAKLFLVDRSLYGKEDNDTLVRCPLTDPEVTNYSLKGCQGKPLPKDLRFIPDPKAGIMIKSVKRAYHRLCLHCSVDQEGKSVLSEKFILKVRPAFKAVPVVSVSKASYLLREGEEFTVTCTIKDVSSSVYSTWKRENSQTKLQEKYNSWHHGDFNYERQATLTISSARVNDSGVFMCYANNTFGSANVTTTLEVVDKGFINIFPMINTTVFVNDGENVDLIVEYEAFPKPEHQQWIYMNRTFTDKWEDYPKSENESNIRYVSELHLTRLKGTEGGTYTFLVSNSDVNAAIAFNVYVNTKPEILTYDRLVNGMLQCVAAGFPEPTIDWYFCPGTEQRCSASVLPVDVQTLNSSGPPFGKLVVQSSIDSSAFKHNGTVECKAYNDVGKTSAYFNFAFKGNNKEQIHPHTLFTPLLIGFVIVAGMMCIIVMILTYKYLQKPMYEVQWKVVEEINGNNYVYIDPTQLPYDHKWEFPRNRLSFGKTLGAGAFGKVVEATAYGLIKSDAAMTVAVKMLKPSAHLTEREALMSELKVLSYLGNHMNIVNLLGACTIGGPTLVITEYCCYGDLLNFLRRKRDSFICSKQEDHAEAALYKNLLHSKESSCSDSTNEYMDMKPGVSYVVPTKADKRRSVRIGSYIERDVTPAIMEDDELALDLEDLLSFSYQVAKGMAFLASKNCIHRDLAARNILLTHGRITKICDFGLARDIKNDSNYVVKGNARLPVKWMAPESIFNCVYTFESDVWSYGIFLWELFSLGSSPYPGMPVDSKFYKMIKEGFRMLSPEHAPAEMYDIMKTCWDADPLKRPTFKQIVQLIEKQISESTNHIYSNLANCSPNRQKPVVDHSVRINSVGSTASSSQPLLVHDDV
# Sequence of UniProt P43403 (whole entry, looked up): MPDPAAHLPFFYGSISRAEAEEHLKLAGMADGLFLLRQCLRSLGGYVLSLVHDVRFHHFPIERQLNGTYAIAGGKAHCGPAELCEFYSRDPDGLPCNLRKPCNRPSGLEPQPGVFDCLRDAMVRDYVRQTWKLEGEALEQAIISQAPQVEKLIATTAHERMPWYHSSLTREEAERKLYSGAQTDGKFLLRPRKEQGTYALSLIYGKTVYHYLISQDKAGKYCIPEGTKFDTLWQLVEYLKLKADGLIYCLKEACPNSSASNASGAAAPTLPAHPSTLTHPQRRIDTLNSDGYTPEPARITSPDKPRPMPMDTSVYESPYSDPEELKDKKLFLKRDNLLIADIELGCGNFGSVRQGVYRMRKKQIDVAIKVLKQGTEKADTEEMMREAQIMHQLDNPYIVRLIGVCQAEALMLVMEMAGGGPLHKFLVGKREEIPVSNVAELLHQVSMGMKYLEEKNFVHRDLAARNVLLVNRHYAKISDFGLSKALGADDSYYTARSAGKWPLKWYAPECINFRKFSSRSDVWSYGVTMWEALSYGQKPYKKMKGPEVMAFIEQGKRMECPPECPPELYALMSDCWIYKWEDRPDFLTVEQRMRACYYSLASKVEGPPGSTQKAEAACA
# Sequence of UniProt Q12852 (whole entry, looked up): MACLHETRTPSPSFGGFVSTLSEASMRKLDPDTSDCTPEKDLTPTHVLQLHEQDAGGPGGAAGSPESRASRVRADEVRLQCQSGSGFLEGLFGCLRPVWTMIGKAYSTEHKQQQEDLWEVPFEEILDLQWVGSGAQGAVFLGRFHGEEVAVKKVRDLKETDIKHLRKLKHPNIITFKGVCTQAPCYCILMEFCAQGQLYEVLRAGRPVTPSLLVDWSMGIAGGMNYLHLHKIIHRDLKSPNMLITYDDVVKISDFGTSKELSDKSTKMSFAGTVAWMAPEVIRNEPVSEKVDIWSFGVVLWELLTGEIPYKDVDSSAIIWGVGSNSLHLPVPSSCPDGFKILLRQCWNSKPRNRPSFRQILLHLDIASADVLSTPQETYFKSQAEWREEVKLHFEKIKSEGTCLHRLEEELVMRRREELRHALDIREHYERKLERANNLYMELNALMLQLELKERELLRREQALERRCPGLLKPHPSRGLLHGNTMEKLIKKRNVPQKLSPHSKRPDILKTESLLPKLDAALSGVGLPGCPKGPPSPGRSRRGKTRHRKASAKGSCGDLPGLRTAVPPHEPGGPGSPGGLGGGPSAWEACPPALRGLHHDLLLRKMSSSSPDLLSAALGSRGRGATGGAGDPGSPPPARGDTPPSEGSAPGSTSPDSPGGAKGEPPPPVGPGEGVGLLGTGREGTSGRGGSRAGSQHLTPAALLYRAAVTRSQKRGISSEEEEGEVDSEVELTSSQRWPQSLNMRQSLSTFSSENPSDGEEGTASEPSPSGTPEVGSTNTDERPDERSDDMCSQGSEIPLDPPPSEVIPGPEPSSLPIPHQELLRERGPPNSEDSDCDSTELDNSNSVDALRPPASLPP
# Sequence of UniProt Q8TD19 (whole entry, looked up): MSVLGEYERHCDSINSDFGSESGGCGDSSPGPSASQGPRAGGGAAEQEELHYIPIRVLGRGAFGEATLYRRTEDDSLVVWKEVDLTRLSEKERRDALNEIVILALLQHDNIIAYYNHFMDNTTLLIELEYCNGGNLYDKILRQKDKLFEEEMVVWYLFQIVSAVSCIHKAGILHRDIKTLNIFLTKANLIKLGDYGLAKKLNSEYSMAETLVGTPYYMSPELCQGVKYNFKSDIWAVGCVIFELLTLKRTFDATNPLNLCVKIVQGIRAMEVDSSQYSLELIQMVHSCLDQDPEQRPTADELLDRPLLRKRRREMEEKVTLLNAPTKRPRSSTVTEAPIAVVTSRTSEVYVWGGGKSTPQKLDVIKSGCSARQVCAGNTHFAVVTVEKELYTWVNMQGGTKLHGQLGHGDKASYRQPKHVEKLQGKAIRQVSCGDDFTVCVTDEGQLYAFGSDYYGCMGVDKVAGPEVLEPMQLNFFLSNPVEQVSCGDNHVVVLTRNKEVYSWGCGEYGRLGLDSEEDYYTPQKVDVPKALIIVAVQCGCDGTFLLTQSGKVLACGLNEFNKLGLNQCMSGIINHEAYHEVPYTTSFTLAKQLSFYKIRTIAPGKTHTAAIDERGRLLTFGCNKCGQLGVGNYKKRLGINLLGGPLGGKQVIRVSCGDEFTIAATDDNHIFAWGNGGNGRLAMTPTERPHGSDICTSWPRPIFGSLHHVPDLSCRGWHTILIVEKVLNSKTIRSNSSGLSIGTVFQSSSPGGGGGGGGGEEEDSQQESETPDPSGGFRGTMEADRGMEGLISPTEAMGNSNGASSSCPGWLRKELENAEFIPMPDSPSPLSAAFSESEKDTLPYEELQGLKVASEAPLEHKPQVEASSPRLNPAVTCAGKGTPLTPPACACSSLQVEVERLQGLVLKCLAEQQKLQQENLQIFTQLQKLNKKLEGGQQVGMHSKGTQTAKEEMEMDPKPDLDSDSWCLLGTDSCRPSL
# Sequence of UniProt Q9H2G2 (whole entry, looked up): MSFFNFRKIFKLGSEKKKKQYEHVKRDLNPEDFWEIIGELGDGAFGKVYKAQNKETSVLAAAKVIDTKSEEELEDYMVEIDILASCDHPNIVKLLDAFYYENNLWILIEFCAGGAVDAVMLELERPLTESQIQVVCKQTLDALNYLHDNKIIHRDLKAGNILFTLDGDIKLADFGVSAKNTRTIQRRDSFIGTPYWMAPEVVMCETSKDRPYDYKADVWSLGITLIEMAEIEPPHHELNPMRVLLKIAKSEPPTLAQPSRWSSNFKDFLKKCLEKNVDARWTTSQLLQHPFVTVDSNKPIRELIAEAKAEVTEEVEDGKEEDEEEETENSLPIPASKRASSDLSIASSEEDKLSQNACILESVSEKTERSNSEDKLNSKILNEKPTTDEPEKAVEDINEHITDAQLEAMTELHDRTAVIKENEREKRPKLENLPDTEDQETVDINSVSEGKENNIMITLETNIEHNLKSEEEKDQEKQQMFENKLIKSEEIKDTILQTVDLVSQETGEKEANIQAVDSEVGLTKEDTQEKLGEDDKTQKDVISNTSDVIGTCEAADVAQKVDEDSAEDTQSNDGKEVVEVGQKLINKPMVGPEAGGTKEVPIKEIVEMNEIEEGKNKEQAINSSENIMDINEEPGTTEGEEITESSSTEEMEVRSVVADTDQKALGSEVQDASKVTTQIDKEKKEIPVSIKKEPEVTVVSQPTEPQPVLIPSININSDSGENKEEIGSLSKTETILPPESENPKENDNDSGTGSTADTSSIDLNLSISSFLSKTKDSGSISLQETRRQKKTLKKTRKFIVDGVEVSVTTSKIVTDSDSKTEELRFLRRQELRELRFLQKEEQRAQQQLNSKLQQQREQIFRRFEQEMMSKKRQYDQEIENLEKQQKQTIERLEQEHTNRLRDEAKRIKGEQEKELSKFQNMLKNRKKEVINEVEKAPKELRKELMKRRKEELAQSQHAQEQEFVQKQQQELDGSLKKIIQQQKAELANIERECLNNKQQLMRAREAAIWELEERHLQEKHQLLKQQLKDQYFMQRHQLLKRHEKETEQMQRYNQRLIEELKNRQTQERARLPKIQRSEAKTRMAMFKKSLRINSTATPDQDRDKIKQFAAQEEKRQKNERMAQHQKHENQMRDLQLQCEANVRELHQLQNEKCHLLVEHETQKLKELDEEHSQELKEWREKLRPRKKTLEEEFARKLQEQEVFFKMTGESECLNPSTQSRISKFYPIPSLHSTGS
# Sequence of UniProt P19784 (whole entry, looked up): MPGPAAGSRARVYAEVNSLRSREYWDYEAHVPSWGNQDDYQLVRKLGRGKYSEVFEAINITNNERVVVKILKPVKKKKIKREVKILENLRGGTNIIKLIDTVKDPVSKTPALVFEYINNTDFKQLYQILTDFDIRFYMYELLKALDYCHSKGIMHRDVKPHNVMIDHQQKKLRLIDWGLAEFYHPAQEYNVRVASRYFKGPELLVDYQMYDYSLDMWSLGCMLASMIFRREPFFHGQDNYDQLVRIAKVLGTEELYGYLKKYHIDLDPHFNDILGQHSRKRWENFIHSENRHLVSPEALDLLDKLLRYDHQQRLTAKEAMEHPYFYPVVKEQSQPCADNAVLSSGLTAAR

# Study 1 — matrix: plasma
# SMILES: COc1ccc(-c2c(Nc3ccccn3)[nH]c3c(C4=CCCCC4)c(-c4ccccc4)nn3c2=O)cc1
item,species,route,dose,time,setting,geometric mean plasma concentration [ng/mL]
methionine,human patients,,100 mg once daily,2 h,cycle 100,81900
methionine,human patients,,400 mg once daily,4 h,cycle 400,78500
,human,oral,400 mg once daily,4 h,cycle 1,2830
,human,oral,200 mg once daily,3 h,cycle 1,5080

# Study 2 — read-out: enzyme activity; action: inhibitor; tested at: 0.5 µM; reference: control
# SMILES: Nc1nccc(-c2c(-c3ccc(F)cc3)ncn2C2CCNCC2)n1
target,remaining activity [%]
"Serine/threonine-protein kinase Nek9 (NEK9, Homo sapiens, UniProt Q8TD19)",100
"Homeodomain-interacting protein kinase 3 (HIPK3, Homo sapiens, UniProt Q9H422)",97.6
"Proto-oncogene tyrosine-protein kinase receptor Ret (RET, Homo sapiens, UniProt P07949)",89.4
"NT-3 growth factor receptor (NTRK3, Homo sapiens, UniProt Q16288)",97.1
"Protein-tyrosine kinase 2-beta (PTK2B, Homo sapiens, UniProt Q14289)",94.6
"Serine/threonine-protein kinase N2 (PKN2, Homo sapiens, UniProt Q16513)",97.1
"Mitogen-activated protein kinase 10 (MAPK10, Homo sapiens, UniProt P53779)",105
"STE20-like serine/threonine-protein kinase (SLK, Homo sapiens, UniProt Q9H2G2)",99.9
"Proto-oncogene tyrosine-protein kinase ROS (ROS1, Homo sapiens, UniProt P08922)",94.1
"Cyclin-dependent kinase 7 (CDK7, Homo sapiens, UniProt P50613)",98.9
"Epidermal growth factor receptor (EGFR, Homo sapiens, UniProt P00533)",94.4
"G protein-coupled receptor kinase 5 (GRK5, Homo sapiens, UniProt P34947)",103
"Calcium/calmodulin-dependent protein kinase type 1G (CAMK1G, Homo sapiens, UniProt Q96NX5)",99.3
"Myotonin-protein kinase (DMPK, Homo sapiens, UniProt Q09013)",99.3
"Serine/threonine-protein kinase BRSK1 (BRSK1, Homo sapiens, UniProt Q8TDC3)",99.7
"Casein kinase II subunit alpha' (CSNK2A2, Homo sapiens, UniProt P19784)",92.2

# Study 3 — technique: competition with immobilised ligand; tested at: 1 µM
# SMILES: CN(C)C(=O)Cn1cc(-c2nc(C3(c4ccc(-c5cnc(N)nc5)cc4)CC3)no2)cn1
target,read-out,remaining binding [%]
"Phosphatidylinositol 5-phosphate 4-kinase type-2 gamma (PIP4K2C, Homo sapiens, UniProt Q8TBX8)",cell-free assay,100
"Serine/threonine-protein kinase WNK1 (WNK1, Homo sapiens, UniProt Q9H4A3)",cell-free assay,97
"Mitogen-activated protein kinase 1 (MAPK1, Homo sapiens, UniProt P28482)",cell-free assay,81
"Mast/stem cell growth factor receptor Kit, autoinhibited (KIT, Homo sapiens, UniProt P10721)",cell-free assay,77
"Dual specificity testis-specific protein kinase 1 (TESK1, Homo sapiens, UniProt Q15569)",cell-free assay,94
"Cyclin-dependent kinase-like 3 (CDKL3, Homo sapiens, UniProt Q8IVW4)",cell-free assay,80
"Serine/threonine-protein kinase MARK1 (MARK1, Homo sapiens, UniProt Q9P0L2)",cell-free assay,100
"Activin receptor type-1-like (ACVRL1, Homo sapiens, UniProt P37023)",binding,86
"Myosin light chain kinase (MYLK3, Homo sapiens, UniProt Q32MK0)",cell-free assay,100
"Tyrosine-protein kinase ZAP-70 (ZAP70, Homo sapiens, UniProt P43403)",cell-free assay,94
"Serine/threonine-protein kinase MAK (MAK, Homo sapiens, UniProt P20794)",cell-free assay,87
"Serine/threonine-protein kinase ULK1 (ULK1, Homo sapiens, UniProt O75385)",cell-free assay,75
"Mitogen-activated protein kinase kinase kinase 12 (MAP3K12, Homo sapiens, UniProt Q12852)",cell-free assay,100
"Eukaryotic translation initiation factor 2-alpha kinase 1 (EIF2AK1, Homo sapiens, UniProt Q9BQI3)",cell-free assay,88

# Study 4 — species: mouse; matrix: microsomes or S9; tested at: 2 µM; time: 0.5 h
Structure (SMILES),remaining compound [%]
Cn1cnnc1-c1nn(C)c2c1CN(C(=O)c1n[nH]c3c1CCCCCC3)CC2,0.199
COc1cc(=O)n(C)cc1C(=O)N1CCc2c(cnc3cc(C)nn23)C1,68.4
COc1ccc(-c2nnc(N(C)C)n2-c2ccc(C)cc2)c(OC)c1,5.66
CN1C(=O)c2[nH]nc(-c3ccccc3)c2C1c1ccco1 (stereo not shown),16.7
OCCCc1cn(-c2ccccc2)c2ccccc12,4.93
O=C(C1=COCCO1)N(CCn1cccn1)c1nc2c(Cl)cccc2s1,24.8
CCC(c1ccccn1)n1cc(-c2nn(C)c3cccc(Cl)c23)nn1 (stereo not shown),5.78
Oc1ccccc1-c1nc(-c2ccccc2O)n(-c2ccc(Br)cc2)n1,76.7
COc1ccc(-c2cn3c(C(=O)N4CCN(C/C=C/c5ccccc5)CC4)csc3n2)cc1,0.0161
CC(CCCC(C)(C)O)Cc1[nH]cnc1-c1ccccc1 (stereo not shown),96.8
Cc1ccc(S(=O)(=O)CCc2noc(C(=O)NCCc3ccc(S(N)(=O)=O)cc3)n2)cc1,56.2
O=C(c1c2c(nc3ccccc13)C(=O)N(C1CCCCC1)C2)N1CCN(c2ccccn2)CC1,26.4

# A few entries again (study 2):
target,remaining activity [%]
"Epidermal growth factor receptor (EGFR, Homo sapiens, UniProt P00533)",94.4
"Serine/threonine-protein kinase N2 (PKN2, Homo sapiens, UniProt Q16513)",97.1
"Mitogen-activated protein kinase 10 (MAPK10, Homo sapiens, UniProt P53779)",105
"Myotonin-protein kinase (DMPK, Homo sapiens, UniProt Q09013)",99.3
"NT-3 growth factor receptor (NTRK3, Homo sapiens, UniProt Q16288)",97.1
"Casein kinase II subunit alpha' (CSNK2A2, Homo sapiens, UniProt P19784)",92.2
"Homeodomain-interacting protein kinase 3 (HIPK3, Homo sapiens, UniProt Q9H422)",97.6
